Experimental data pooled from the literature.
Every numbered part comes from another study and shows a few of its results, in no order.

Series 1
Target: RING finger protein unkempt homolog, zinc fingers 1-6, GST-SBP tag (UNK, Homo sapiens, UniProt Q9C0B0, residues 30-357)
Chain of UniProt Q9C0B0 (30-357, looked up): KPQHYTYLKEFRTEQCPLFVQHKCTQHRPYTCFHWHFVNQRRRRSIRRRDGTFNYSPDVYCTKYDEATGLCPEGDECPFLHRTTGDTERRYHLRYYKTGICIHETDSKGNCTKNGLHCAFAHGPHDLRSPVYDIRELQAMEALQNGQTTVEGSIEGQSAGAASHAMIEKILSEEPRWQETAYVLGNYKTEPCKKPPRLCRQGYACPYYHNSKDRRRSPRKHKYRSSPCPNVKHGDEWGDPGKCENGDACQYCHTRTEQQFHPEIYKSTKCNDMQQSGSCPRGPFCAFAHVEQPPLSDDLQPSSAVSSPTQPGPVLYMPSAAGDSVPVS
Technique: RNA Bind-n-Seq
Form: RNA
Sample: in vitro
Tested at: not given
Notes: RNA with constant flanks, human and mouse sites, ends assumed
Relative to: input RNA pool
Reading: higher = stronger binding
Strand | bound/input enrichment [ratio]
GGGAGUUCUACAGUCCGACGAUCAUUGAAGUGUUCACUGACCUCAGCAGCCCGUUCAGCCAGGACCAACUGGACGUUAUAAUUUGUAACUUGAAGAAGUCUGGCAUCUCUCUGCAGUUCUUUUUGCCUUUUCCAAUCGACAAGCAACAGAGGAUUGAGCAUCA | 0.175
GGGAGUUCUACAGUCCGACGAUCAAUAUCACUUCCAGGACCUGCCAGACGCAGUUCCCCCCAGAGGGUUGUGUUCUCAGUUUGUUCAUUGCUAAGUUCCUGUCUGACUUUAUUGUAACUUCUGAAAGGCUAGAUUUCCUCUCUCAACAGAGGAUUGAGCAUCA | 0.177
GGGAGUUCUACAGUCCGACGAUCAGCAUGAAUAUGAAGAGCAGGUUUGAUAUAAAAUCAAUGGCAGGGAAUAUCAUUCCUGCUAUAGCUACUACUAAUGCAGUGAUCGCCGGCUUGAUAGUGUUGGAAGGAUUAAAGAUUUUACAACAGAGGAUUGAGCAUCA | 0.269
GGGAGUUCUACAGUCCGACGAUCGAAAAGAAUGUGCUGUUUUCACACCUUGAUGAUAACGAGAGAAGUGACAUUUUUGAUGCUAUGUUUCCAGUCUCCUUUAUUGCUGGAGAGACGGUUAUUCAGCAAGGUGAUGAAGGGGAUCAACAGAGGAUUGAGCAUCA | 0.244
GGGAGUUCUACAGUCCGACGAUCGACUCCCUCAUUAGCAAUGACUCAGAAGUCAUCAUAGAGCCCAAGGAACAACUAGGACAUCAUGAUUCUCAGCAUUUGGAUAAAUUUGACAUUCCUUUUGAAAUGUUAGAAGAUGAUAUUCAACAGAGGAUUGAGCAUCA | 3.87
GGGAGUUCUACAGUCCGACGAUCAAAUUUAUAUUAAUAAAUUACUAAACUAAGAGUAUCAGGUUAUUUAUAUAUUUGCAAGCAAAGGACAGUAAGAAGUUGACUGGCAAAAGAGCAGUGCUGAAGGAGGAGAUCCAGGUUUAACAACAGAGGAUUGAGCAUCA | 0.68
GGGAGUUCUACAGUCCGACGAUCAAGUUUGGAUUUGAAAUUAGUUUUCCUGAAUUUUGUUUAAAAGGAGUUACGCCUACGAAUGUUAGUGCGUAUAAUUUAAAUACCUGCUUCCUUGCCAAGAAGAUAGCAUCUUCUAAGGUUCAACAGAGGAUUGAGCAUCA | 0.608
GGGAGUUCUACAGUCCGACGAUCUGGCGUUUCAGCAACAUGAAACAGUGGAAUGUCAACUGGGAAAUCAAAAUGGUCACCGUAGAGUUUGCAGAUGAAGUACGAUUGUCCUUCAUUUGUACUGAAGUAGAUUGCAAAGUGGUUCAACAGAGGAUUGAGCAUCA | 0.821

Series 2
Target: Interferon regulatory factor 7, full length, phosphomimetic (IRF7, Homo sapiens, UniProt Q92985, residues 1-503, S471D/S472D/S475D/S476D/S477D/S483D/S484D/S487D)
Chain of UniProt Q92985 (whole entry, unmodified, looked up): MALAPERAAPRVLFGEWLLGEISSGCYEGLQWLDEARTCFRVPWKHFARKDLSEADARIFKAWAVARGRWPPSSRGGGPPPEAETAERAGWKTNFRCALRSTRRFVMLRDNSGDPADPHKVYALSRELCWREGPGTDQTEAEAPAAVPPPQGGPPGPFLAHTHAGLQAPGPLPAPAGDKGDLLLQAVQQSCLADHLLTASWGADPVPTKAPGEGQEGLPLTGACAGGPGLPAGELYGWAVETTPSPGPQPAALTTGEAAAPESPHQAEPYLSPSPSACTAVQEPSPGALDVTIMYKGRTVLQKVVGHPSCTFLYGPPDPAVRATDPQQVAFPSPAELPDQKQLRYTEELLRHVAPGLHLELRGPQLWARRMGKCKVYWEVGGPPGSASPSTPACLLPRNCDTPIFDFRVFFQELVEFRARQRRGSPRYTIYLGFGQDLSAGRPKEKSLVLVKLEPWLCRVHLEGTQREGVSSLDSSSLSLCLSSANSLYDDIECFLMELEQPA
Technique: protein-binding microarray
Form: double-stranded DNA, one strand shown
Sample: in vitro
Tested at: 2200 nM top
Notes: 60-bp whole probe
With: salmon DNA 0.4 mg/ml
Relative to: random background probes
Reading: higher = stronger binding
Shared flanks, not repeated: GCCTAGCAC … GTCTTGATTCGCTTGACGCTGCTG
Strand | fitted relative affinity [z-score]
TTAGGTCTCGGTTTTGGTTAGTGCTAG | 2.5
TCACTTTTATTTTCAGTACTGTGCTAG | 3.58
CACGGTATCGACTATCGGGACGTGCTA | 0.0332
GACGACCTGAGACTGGAGACGTGCTAG | -0.163
GACGGTTTCCGGTTTCGGGACGTGCTA | 6.91
TTAGGTCTGGACACTGGGTTAGTGCTA | -0.394
AGTGTTTGCCCTATTTAAAAGTGCTAG | 1.07
TCAAATTTTTTTCTAAGACTGTGCTAG | -0.366
TCCATTTTCTAAATGCCCTGGTGCTAG | 3.59
TTAGGTATCCTTATACTTTAGTGCTAG | 0.453
TTAGGTATCGACTATCGGTTGGTGCTA | 0.619
ATAGATATCGGGACTGGATTAGTGCTA | -0.122
TTGGTTTTCCTTATTGCTTCGTGCTAG | 2.91
TTGCCTCTGCTGCTGGCCGCGTGCTAG | -0.0107
TCAAAAATGAATATTAGACTGTGCTAG | -1.05
TTAGGACTGCTTCTCCTTTTGTGCTAG | 0.888
TTAGGTTTCTACTTTCGGTTAGTGCTA | 10.9
GACGGTTTCGGGACTGGGGATGTGCTA | 3.38
TTAGATTCGAGTTTCGATTAGTGCTAG | 6.19

Series 3
Target: Ras GTPase-activating protein-binding protein 1, C-terminal RGG region (G3BP1, Homo sapiens, UniProt Q13283)
Chain of UniProt Q13283 (whole entry, looked up): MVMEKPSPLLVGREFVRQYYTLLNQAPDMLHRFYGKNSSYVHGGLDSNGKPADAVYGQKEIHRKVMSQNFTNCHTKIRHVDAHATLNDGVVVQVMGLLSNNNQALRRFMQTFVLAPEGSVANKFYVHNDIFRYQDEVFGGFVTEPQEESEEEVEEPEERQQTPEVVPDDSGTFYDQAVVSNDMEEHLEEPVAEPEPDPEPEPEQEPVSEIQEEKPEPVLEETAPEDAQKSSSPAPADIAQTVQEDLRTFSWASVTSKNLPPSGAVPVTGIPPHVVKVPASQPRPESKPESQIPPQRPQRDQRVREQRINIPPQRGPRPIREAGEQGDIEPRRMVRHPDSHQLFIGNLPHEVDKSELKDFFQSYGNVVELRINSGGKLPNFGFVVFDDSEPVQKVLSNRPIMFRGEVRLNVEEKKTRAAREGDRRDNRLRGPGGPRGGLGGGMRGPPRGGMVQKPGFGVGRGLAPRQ
Technique: RNA Bind-n-Seq
Form: RNA
Sample: in vitro
Tested at: 1 µM
Notes: whole 134-nt RNA, ends assumed
With: 150 mM KCl
Relative to: input library
Reading: higher = stronger binding
Strand | log2 enrichment
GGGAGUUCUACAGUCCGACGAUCUGCUUGUUCUGGAGUGAUCUUCUGACUGGAAAAGAACUAUGUCAUGGAUCAAGGAAGGAGAGCUGUCACUUUGGGAGCGGUUCUGUGCCAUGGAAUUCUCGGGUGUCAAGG | 1.43
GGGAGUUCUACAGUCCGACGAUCUAACUUUAGAGGAGGAUCUGAUGGAUAUGGCAGUGGACGUGGAUUUGGGGAUGGCUAUAAUGGGUAUGGACGAGGACCUGGAGGUGGCAAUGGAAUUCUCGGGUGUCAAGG | -0.661
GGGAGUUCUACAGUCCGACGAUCAAGUCCUGUGCUACACAUCGUAUGUACCGAAUCGGGUGGGAAAGGGAAAAAAAGGGAAAGUAUUAUGUUACGCCGUUCGGAUCUGCACUUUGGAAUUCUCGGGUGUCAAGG | -0.251
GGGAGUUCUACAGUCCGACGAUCUCCCGACAUCUGUGGCCCUGGCACCAAGAAGGUUCAUGUCAUCUUCAACUACAAGGGCAAGAACGUGCUGAUCAACAAGGACAUCCGUUGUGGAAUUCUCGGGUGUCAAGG | -0.239
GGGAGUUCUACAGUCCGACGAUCCAAGUCCUGUGCUACACAUCGUAUGUACCGAAUCGGCCCGGGGCCCGGGGCCCGGAAAGUAUUAUGUUACGCCGUUCGGAUCUGCACUUCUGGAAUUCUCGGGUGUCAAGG | -1.98
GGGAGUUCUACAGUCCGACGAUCCUCAAGUCCUGUGCUACACAUCGUAUGUACCGAAUCGGGGAGGGGAGGGAGGGAAAGUAUUAUGUUACGCCGUUCGGAUCUGCACUUCCAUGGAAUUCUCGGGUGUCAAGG | 2.49
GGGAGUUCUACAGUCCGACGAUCGCAGGAAGUAAAAACAAAUGGAAAUGCUACGGAUAGUGGCAGGGGUGGGGGUUGCUAAGGAAAGGGUGGGAUGGGAGUGGGUAAAGAGUUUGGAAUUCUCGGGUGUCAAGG | 1.81
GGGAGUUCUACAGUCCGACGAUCUGGCCCUGGUGGCAUGCGGGGAGGAAGAGCUGGCCUCAUGGAUCGUGGUGGUCCCGGUGGAAUGUUCAGAGGUGGCCGUGGUGGAGACAGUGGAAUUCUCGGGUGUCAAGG | 2.38
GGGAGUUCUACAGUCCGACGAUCCUCAAGUCCUGUGCUACACAUCGUAUGUACCGAAUCGGGGUGGGGUGGGUGGGGAAAGUAUUAUGUUACGCCGUUCGGAUCUGCACUUCCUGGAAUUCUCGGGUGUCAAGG | 1.33
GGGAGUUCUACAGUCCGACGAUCUCCUGUGCUACACAUCGUAUGUACCGAAUCGGGAAAAAGGGAAAAAAAGGGUUUUUGGGAAAGUAUUAUGUUACGCCGUUCGGAUCUGCAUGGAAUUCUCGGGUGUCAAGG | -0.586

Series 4
Target: RNA binding protein fox-1 homolog 2, RRM domain, GST-SBP tag (RBFOX2, Homo sapiens, UniProt O43251-10, residues 100-194)
Technique: RNA Bind-n-Seq
Form: RNA
Sample: in vitro
Tested at: 365 nM
Notes: natural RNA segment, single round, ends assumed
Relative to: no-protein control
Reading: higher = stronger binding
Construct (chain): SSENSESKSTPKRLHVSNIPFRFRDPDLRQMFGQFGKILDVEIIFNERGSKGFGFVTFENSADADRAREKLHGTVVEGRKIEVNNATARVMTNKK
Strand | RBNS enrichment (R)
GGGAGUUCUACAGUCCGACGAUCAAGACCGCACUGGAGUUGGGUGUGUUCUGAGUUUCUGUCCAGAUGUGAUUUCAGCAGUCAUGGUAUUCCAAGUGUGUGUGUGGAGGUAGAUAAGUGGGACGGUAAAGACAUGGAAUUCUCGGGUGCCAA | 1.25
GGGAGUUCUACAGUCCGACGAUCCCUGGUGGAGCCAGGCAGCAGGGCCUUCCUGACCAACAGCCAUGUCUGACCUUCCCACUGAGAAACACAUGUUCAUUUAUGUGAUCAUGUAUAGAUUUCAGAAUAUAAGAUGGAAUUCUCGGGUGCCAA | 0.178
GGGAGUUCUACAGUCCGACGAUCUGAAAUACUCAGGAGCUGAGUGAGUAUGUUUGUUGCUACUUACAAUCCCAACCUGUUAGUCCCAGUAGUUUUGUUUUAACAUGGUCUUUUUCAACUUUGUUUCCUGUUUAUGGAAUUCUCGGGUGCCAA | 0.71
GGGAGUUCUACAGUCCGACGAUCAACCCACUCACUGGCUUUGACCUUCAACUGCCAGUCUGGGCAAAUACCAGUGAGCUCUGUUGUACCAAGACCAGGUCUUCAGAGCAUCUGAACCACUGUGGCCUUCUCUUUGGAAUUCUCGGGUGCCAA | 0.176
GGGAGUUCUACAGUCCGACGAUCUUGCAGCCCCCUCCCUCUCAGGUGUCCUGAGAUGCUGUUCCUGGGAGCCCCCUCAGAAAACUGCCUCACCUGAGACAAGUGCCUGCUGGACAGAGGUGUGAUUCCAGGCCUGGAAUUCUCGGGUGCCAA | 0.394
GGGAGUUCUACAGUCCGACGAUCGAAGAGUACUCAGCAGCCACUGCCCUCAUCAGGAACCUCCUCGGCAUCCAUCAGUCUCCUCACUGCUCCUGUGCGCAGGGCUGUCCCUCCCACACUCCCUUCCAGGCCGUUGGAAUUCUCGGGUGCCAA | 0.471

A few entries again (series 3):
Strand | log2 enrichment
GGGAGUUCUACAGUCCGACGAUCUAACUUUAGAGGAGGAUCUGAUGGAUAUGGCAGUGGACGUGGAUUUGGGGAUGGCUAUAAUGGGUAUGGACGAGGACCUGGAGGUGGCAAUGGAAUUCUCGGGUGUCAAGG | -0.661
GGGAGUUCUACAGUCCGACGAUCUGCUUGUUCUGGAGUGAUCUUCUGACUGGAAAAGAACUAUGUCAUGGAUCAAGGAAGGAGAGCUGUCACUUUGGGAGCGGUUCUGUGCCAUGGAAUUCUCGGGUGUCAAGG | 1.43
